Experimental data gathered from unrelated publications.
Parts stem from different laboratories: compare values within a part only.
Chain of UniProt P00519 (whole entry, unmodified, looked up): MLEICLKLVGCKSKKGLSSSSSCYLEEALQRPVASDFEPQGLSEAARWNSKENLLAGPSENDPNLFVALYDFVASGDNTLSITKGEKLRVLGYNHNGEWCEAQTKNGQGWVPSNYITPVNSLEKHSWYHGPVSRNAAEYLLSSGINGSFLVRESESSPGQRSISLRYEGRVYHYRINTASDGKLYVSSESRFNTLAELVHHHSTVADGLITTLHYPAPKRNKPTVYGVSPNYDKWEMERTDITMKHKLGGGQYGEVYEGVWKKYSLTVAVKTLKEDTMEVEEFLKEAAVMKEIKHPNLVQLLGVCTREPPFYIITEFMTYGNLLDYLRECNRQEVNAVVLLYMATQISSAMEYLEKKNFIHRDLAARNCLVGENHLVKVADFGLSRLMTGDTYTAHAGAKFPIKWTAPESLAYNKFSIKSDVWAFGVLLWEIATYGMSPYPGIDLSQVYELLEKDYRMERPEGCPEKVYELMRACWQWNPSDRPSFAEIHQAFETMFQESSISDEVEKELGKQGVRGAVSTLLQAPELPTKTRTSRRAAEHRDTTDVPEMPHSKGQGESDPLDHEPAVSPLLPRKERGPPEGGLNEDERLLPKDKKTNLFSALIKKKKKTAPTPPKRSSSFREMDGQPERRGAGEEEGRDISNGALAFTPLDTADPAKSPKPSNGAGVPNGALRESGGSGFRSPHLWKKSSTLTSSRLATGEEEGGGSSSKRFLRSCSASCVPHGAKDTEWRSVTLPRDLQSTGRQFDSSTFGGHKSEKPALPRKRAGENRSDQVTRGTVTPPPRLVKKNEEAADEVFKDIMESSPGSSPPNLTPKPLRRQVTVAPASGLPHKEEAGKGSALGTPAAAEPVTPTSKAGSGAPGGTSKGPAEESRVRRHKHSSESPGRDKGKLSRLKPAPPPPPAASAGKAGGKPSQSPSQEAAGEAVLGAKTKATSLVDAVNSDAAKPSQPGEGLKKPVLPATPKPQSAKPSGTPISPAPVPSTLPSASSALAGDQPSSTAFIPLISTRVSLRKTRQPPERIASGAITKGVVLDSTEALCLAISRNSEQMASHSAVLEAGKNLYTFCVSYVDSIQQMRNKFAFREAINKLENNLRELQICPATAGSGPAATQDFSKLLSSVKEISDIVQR
Chain of UniProt P41595 (whole entry, looked up): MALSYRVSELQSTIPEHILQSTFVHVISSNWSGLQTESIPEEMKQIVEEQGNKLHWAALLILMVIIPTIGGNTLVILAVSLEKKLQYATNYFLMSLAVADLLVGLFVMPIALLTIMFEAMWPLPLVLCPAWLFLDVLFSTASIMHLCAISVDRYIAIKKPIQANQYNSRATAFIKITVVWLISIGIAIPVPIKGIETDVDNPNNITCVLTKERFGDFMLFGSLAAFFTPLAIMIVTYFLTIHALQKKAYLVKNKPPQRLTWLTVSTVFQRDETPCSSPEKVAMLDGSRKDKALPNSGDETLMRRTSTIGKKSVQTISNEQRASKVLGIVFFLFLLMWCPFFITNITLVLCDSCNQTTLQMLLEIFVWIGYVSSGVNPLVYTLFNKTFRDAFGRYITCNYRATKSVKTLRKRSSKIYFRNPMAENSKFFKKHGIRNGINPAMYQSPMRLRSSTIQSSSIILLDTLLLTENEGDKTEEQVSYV

Set 1
Target: Sal-like protein 4, full length isoform B (SALL4, Homo sapiens, UniProt Q9UJQ4-2, residues 1-616)
Technique: universal PBM
Molecule type: double-stranded DNA, one strand shown
Sample: in vitro
Tested at: not given
Setting: 8-mer, flanks averaged, mean of replicates
Reading: higher = stronger binding
Measurement: E-score
CGGGGAAA: -0.141
CTCCTTGA: -0.049
CTGATCAG: -0.198
AAGGATAT: 0.217
CCGCTTCC: -0.203
GCTTGCGA: -0.015
GCCGTCGA: -0.285
AAGGCGCG: -0.204

Set 2
Target: Centromere-binding protein 1, full length, N-terminal tag (CBF1, Saccharomyces cerevisiae, UniProt P17106, residues 1-351)
Chain of UniProt P17106 (whole entry, looked up): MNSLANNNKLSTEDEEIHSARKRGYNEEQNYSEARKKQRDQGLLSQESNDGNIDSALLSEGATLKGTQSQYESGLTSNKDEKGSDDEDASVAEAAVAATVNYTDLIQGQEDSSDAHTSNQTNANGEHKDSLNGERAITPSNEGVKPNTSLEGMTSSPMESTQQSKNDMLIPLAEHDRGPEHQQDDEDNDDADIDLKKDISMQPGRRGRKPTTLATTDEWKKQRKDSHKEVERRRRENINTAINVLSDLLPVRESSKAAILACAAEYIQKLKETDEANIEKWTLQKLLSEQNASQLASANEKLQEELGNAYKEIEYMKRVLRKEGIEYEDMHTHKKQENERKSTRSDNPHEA
Technique: protein-binding microarray
Molecule type: double-stranded DNA, one strand shown
Sample: in vitro
Tested at: 0.8 µM
Setting: whole 60-bp probe, no competitor
Reading: higher = stronger binding
Measurement: fluorescence intensity
CCTAACTACTATAAACACGTTTGATAGCTTCGTACAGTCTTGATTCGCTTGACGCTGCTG: 580 a.u.
CCTAACTACTATACACGTGCAACATAGCTTCGTACAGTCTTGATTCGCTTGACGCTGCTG: 5310 a.u.
GAAATAAGTTCGCAGCATGTGGATTCAAGTCCATAGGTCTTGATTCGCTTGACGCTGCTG: 550 a.u.
CTAAATCTCATTTTTTTCGTGATTATTAATTTTTTCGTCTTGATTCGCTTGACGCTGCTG: 536 a.u.
TGTACGAAGCTATATCACGTGAATATAGTAGTTAGGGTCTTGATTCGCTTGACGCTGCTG: 13900 a.u.
CTATCCACGGAAAAACACGTGCTGTGCGGGTATTTCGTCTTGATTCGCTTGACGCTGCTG: 6520 a.u.
CTAGTTACCTCCAGGTGATTGCTGTCTTTATGCTTCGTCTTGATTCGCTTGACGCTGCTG: 520 a.u.
CTACTTAAACTACTCCTCGTGCTGTCCACATTTTTCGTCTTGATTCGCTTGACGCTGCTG: 638 a.u.

Set 3
Target: Ephrin type-B receptor 2 (EPHB2, Homo sapiens, UniProt P29323)
Observed: enzyme activity
Mode: inhibitor
Tested at: 0.5 µM
Reference: control
Measurement: remaining activity
COc1cc2ncnc(Nc3ccc(Oc4ccccc4)cc3)c2cc1OC: 99.7%
O=C(O)c1ccc2c3c1cccc3c(=O)n1c3ccccc3nc21: 104%
O=c1c2ccccc2[nH]c(=S)n1CCN1CCC(=C(c2ccc(F)cc2)c2ccc(F)cc2)CC1: 92.1%
N#CC(C#N)=C(N)/C(C#N)=C/c1ccc(O)cc1: 97.1%
Nc1ncnc2n[nH]c(Nc3ccc(F)cc3)c12: 91.6%
O=C(Nc1cccc(Nc2cc(Nc3cccc(C(F)(F)F)c3)ncn2)c1)C1CC1: 88.6%
O=S(=O)(c1cccc2cnccc12)N1CCCNCC1: 83.2%
CNC(=O)c1cc(Oc2ccc(NC(=O)Nc3ccc(Cl)c(C(F)(F)F)c3)cc2)ccn1: 93.2%
O=C1NC(=O)C(c2cn(CCCO)c3ncccc23)=C1c1cnccn1: 78.3%
COc1ccc(C(=O)Nc2sc3c(c2C(N)=O)CCCC3)cc1OC: 73.5%
OCC(O)CCON=C1C(c2c(O)[nH]c3ccccc23)=Nc2ccccc21 (stereo not shown): 75%
COc1cc2nccc(Oc3ccc(NC(=S)NC(=O)c4ccccc4C)cc3)c2cc1OC: 93.5%
Cn1sc(=O)n(Cc2ccccc2)c1=O: 88.5%

Other studies, line by line
CNC(=O)Nc1ccc2c(c1)CC[C@]21OC(=O)N(CC(=O)N(Cc2ccc(F)cc2)[C@@H](C)C(F)(F)F)C1=O
remaining binding (Tyrosine-protein kinase ABL1 (ABL1, Homo sapiens, UniProt P00519, E255K); KINOMEscan; 1 µM, E255K mutant, phosphorylated; reference: control): 75%

C[C@@H]1CN(c2cc(-c3nn(C)c4ccc(OC5(C)CC5)cc34)ncn2)C[C@H](C)O1
inhibition (5-hydroxytryptamine receptor 2B (HTR2B, Homo sapiens, UniProt P41595); binding, radioligand binding; 10 µM): 26.7%

A few entries again (set 3):
Cn1sc(=O)n(Cc2ccccc2)c1=O: 88.5%
COc1cc2nccc(Oc3ccc(NC(=S)NC(=O)c4ccccc4C)cc3)c2cc1OC: 93.5%
